# Measurements collected from several papers.
# Compare with care: the assays were run in different laboratories.
# Organism: Pseudomonas aeruginosa
SMILES,assay,system,setting,MIC
CN[C@H](CC(C)C)C(=O)N[C@H]1C(=O)N[C@@H](CC(N)=O)C(=O)N[C@H]2C(=O)N[C@H]3C(=O)N[C@H](C(=O)N[C@H](C(=O)O)c4cc(O)cc(O)c4-c4cc3ccc4O)[C@H](O)c3ccc(c(Cl)c3)Oc3cc2cc(c3O[C@@H]2O[C@H](CO)[C@@H](O)[C@H](O)[C@H]2O[C@H]2C[C@](C)(NCc3ccc(OCc4cn(CC(=O)N[C@H](C(=O)N[C@@H](CCN)C(=O)N[C@H]5CCNC(=O)[C@H]([C@@H](C)O)NC(=O)[C@H](CCN)NC(=O)[C@H](CCN)NC(=O)[C@H](CC(C)C)NC(=O)[C@@H](CC(C)C)NC(=O)[C@H](CCN)NC5=O)[C@@H](C)O)nn4)c(OC)c3)[C@H](O)[C@H](C)O2)Oc2ccc(cc2Cl)[C@H]1O,broth microdilution,"ATCC 35218, cation-adjusted Mueller-Hinton broth",,6 µM
CCCCCCCC[C@@H]1NC(=O)[C@@H](Cc2ccccc2)NC(=O)[C@H](CCN)NC(=O)[C@@H](NC(=O)[C@H](CCN)NC(=O)[C@@H](NC(=O)[C@H](CCN)NC(=O)CCCCCCC)[C@@H](C)O)CCNC(=O)[C@H]([C@@H](C)O)NC(=O)[C@H](CCN)NC(=O)[C@H](CCN)NC1=O,broth microdilution,colistin-resistant isolates,,0.25 to 1 µg/mL
C#CCNC(=O)[C@H]1NC(=O)[C@H]2NC(=O)[C@H](NC(=O)[C@@H]3NC(=O)[C@H](CC(N)=O)NC(=O)[C@H](NC(=O)[C@@H](CC(C)C)NC)[C@H](O)c4ccc(c(Cl)c4)Oc4cc3cc(c4O[C@@H]3O[C@H](CO)[C@@H](O)[C@H](O)[C@H]3O[C@H]3C[C@](C)(N)[C@H](O)[C@H](C)O3)Oc3ccc(cc3Cl)[C@H]2O)c2ccc(O)c(c2)-c2c(O)cc(O)cc21,broth microdilution,"ATCC 35218, cation-adjusted Mueller-Hinton broth",,22 µM
CC[C@H](C)[C@H](NC(=O)[C@@H](CCCNC(=N)N)NC(=O)[C@H](CCCNC(=N)N)NC(=O)[C@H](CCC(=O)O)NC(=O)[C@H](Cc1c[nH]c2ccccc12)NC(=O)[C@H](CCCNC(=N)N)NC(=O)[C@@H]1CCCN1C(=O)[C@H](CCCNC(=N)N)NC(=O)[C@@H]1CCCN1C(=O)[C@H](CC(C)C)NC(=O)[C@H](Cc1ccc(O)cc1)NC(=O)[C@@H]1CCCN1C(=O)[C@@H]1CCCN1C(=O)[C@H](CCCCN)NC(=O)[C@H](CC(=O)O)NC(=O)[C@@H](N)C(C)C)C(=O)N[C@@H](Cc1ccc(O)cc1)C(=O)N[C@@H](CC(N)=O)C(=O)N[C@H](CCCNC(=N)N)C(N)=O,broth microdilution,DSM 1117,"18 h, 37 °C, 25% MHB2",> 128 µg/mL
CCCCCCCC(=O)N[C@@H](CCN)C(=O)N[C@H](C(=O)N[C@@H](CCN)C(=O)N[C@H]1CCNC(=O)[C@H]([C@@H](C)O)NC(=O)[C@H](CCN)NC(=O)[C@H](CCN)NC(=O)[C@H](CCCc2ccccc2)NC(=O)[C@@H](Cc2ccccc2)NC(=O)[C@H](CCN)NC1=O)[C@@H](C)O,,ATCC 27853,,0.125 to 0.25 µg/mL
CC(C)C[C@H](NC(=O)[C@H](CCCCN)NC(=O)C1CCCC=CCCC(NC(=O)[C@H](CCCCN)NC(=O)[C@@H](N)CC(C)C)C(=O)N[C@@H](CCCCN)C(=O)NC2CCC=CCCCC(NC(=O)[C@H](CCCCN)NC(=O)CNC(=O)[C@H]3CCCN3C(=O)[C@H](CCCCN)NC2=O)C(=O)N[C@@H](CCCCN)C(=O)N1)C(N)=O (stereo partly shown),broth microdilution,"ATCC 9027, Mueller-Hinton broth","18 h, 37 °C",64 µM
CC(=O)N[C@@H](CC(C)C)C(=O)N[C@H]1CSSC[C@@H](C(=O)N2CCC[C@H]2C(N)=O)NC(=O)[C@H]([C@@H](C)O)NC(=O)[C@H](C(C)C)NC(=O)[C@H]([C@@H](C)O)NC(=O)CNC(=O)[C@H](CC(C)C)NC(=O)[C@H](Cc2ccccc2)NC(=O)[C@H](Cc2ccc(O)cc2)NC(=O)[C@H](CC(C)C)NC(=O)[C@H](CCCCN)NC(=O)[C@H](Cc2ccccc2)NC(=O)[C@H](CCCNC(=N)N)NC(=O)[C@H](CCC(N)=O)NC(=O)[C@H](CC(C)C)NC(=O)[C@H](CCCCN)NC(=O)[C@@H]2CCCN2C(=O)[C@H](CCCCN)NC(=O)[C@H](C(C)C)NC(=O)[C@H](CCCCN)NC(=O)[C@H](Cc2ccc(O)cc2)NC(=O)[C@H]([C@@H](C)O)NC1=O,broth dilution,CGMCC strain,24 h,5 to 10 µM
CC[C@H](C)[C@H](N)C(=O)N[C@@H](CCCNC(=N)N)C(=O)N[C@H](C(=O)N[C@@H](Cc1c[nH]c2ccccc12)C(=O)N[C@@H](Cc1ccccc1)C(=O)N[C@H](C(=O)N[C@@H](CCCCN)C(=O)N[C@H](C(=O)N[C@@H](CCCNC(=N)N)C(=O)N[C@@H](CCCCN)C(=O)N[C@@H](CCSC)C(=O)N[C@@H](CCCCN)C(=O)N[C@@H](C)C(=O)N[C@H](C(=O)N[C@@H](Cc1ccc(O)cc1)C(=O)N[C@@H](Cc1c[nH]cn1)C(N)=O)[C@@H](C)CC)C(C)C)[C@@H](C)CC)C(C)C,broth dilution,ATCC 27853,,100 µM
CN[C@H](CC(C)C)C(=O)N[C@H]1C(=O)N[C@@H](CC(N)=O)C(=O)N[C@H]2C(=O)N[C@H]3C(=O)N[C@H](C(=O)N[C@H](C(=O)NCc4cn(CC(=O)N[C@H](C(=O)N[C@@H](CCN)C(=O)N[C@H]5CCNC(=O)[C@H]([C@@H](C)O)NC(=O)[C@H](CCN)NC(=O)[C@H](CCN)NC(=O)[C@H](CC(C)C)NC(=O)[C@@H](CC(C)C)NC(=O)[C@H](CCN)NC5=O)[C@@H](C)O)nn4)c4cc(O)cc(O)c4-c4cc3ccc4O)[C@H](O)c3ccc(c(Cl)c3)Oc3cc2cc(c3O[C@@H]2O[C@H](CO)[C@@H](O)[C@H](O)[C@H]2O[C@H]2C[C@](C)(N)[C@H](O)[C@H](C)O2)Oc2ccc(cc2Cl)[C@H]1O,broth microdilution,"ATCC 27736, cation-adjusted Mueller-Hinton broth",,13 µM
CC[C@H](C)[C@H](NC(=O)CNC(=O)[C@@H](NC(=O)CNC(=O)[C@@H](NC(=O)CNC(=O)[C@@H](NC(=O)[C@@H](NC(=O)[C@H](CCC(N)=O)NC(=O)[C@H](CCC(=O)O)NC(=O)[C@@H](NC(=O)[C@H](CC(C)C)NC(=O)[C@H](CCCNC(=N)N)NC(=O)[C@H](Cc1ccccc1)NC(=O)[C@@H](NC(=O)[C@H](CC(N)=O)NC(=O)[C@H](CCCCN)NC(=O)CNC(=O)[C@H](CCSC)NC(=O)[C@H](CCCCN)NC(=O)CNC(=O)[C@H](CC(C)C)NC(=O)[C@H](CCCCN)NC(=O)[C@H](CCCCN)NC(=O)CNC(=O)[C@H](Cc1ccccc1)NC(=O)[C@H](CCCCN)NC(=O)[C@H](CCCCN)NC(=O)[C@H](CC(C)C)NC(=O)[C@H](Cc1c[nH]c2ccccc12)NC(=O)CN)C(C)C)C(C)C)C(C)C)C(C)C)C(C)C)C(C)C)C(=O)N[C@@H](CC(N)=O)C(=O)N[C@@H](C)C(=O)N[C@@H](CC(C)C)C(=O)N[C@@H](CO)C(=O)O,broth microdilution,"ATCC 27853, Mueller-Hinton broth","16 to 20 h, 37 °C",8.79 µg/mL

# For quick reference, copied from above:
SMILES,assay,system,setting,MIC
CC[C@H](C)[C@H](NC(=O)[C@@H](CCCNC(=N)N)NC(=O)[C@H](CCCNC(=N)N)NC(=O)[C@H](CCC(=O)O)NC(=O)[C@H](Cc1c[nH]c2ccccc12)NC(=O)[C@H](CCCNC(=N)N)NC(=O)[C@@H]1CCCN1C(=O)[C@H](CCCNC(=N)N)NC(=O)[C@@H]1CCCN1C(=O)[C@H](CC(C)C)NC(=O)[C@H](Cc1ccc(O)cc1)NC(=O)[C@@H]1CCCN1C(=O)[C@@H]1CCCN1C(=O)[C@H](CCCCN)NC(=O)[C@H](CC(=O)O)NC(=O)[C@@H](N)C(C)C)C(=O)N[C@@H](Cc1ccc(O)cc1)C(=O)N[C@@H](CC(N)=O)C(=O)N[C@H](CCCNC(=N)N)C(N)=O,broth microdilution,DSM 1117,"18 h, 37 °C, 25% MHB2",> 128 µg/mL
